Measurements from different studies.
Every numbered part comes from another study and shows a few of its results, in no order.
UniProt P53350, sequence (whole entry, looked up): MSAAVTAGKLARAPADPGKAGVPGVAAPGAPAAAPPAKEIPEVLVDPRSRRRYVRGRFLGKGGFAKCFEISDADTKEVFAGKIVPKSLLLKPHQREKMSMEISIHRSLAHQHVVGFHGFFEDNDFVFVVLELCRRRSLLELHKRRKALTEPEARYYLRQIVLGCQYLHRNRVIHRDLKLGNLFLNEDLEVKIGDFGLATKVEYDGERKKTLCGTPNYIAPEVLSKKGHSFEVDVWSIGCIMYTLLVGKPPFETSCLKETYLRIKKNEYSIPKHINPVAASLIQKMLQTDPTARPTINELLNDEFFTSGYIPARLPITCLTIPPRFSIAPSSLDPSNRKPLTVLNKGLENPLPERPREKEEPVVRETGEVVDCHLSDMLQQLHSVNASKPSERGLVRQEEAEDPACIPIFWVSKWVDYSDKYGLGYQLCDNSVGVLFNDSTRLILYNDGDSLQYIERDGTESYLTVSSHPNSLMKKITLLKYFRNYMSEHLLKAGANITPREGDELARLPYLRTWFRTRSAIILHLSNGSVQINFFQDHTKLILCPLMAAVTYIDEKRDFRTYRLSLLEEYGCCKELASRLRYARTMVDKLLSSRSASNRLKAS
UniProt O75676, sequence (whole entry, looked up): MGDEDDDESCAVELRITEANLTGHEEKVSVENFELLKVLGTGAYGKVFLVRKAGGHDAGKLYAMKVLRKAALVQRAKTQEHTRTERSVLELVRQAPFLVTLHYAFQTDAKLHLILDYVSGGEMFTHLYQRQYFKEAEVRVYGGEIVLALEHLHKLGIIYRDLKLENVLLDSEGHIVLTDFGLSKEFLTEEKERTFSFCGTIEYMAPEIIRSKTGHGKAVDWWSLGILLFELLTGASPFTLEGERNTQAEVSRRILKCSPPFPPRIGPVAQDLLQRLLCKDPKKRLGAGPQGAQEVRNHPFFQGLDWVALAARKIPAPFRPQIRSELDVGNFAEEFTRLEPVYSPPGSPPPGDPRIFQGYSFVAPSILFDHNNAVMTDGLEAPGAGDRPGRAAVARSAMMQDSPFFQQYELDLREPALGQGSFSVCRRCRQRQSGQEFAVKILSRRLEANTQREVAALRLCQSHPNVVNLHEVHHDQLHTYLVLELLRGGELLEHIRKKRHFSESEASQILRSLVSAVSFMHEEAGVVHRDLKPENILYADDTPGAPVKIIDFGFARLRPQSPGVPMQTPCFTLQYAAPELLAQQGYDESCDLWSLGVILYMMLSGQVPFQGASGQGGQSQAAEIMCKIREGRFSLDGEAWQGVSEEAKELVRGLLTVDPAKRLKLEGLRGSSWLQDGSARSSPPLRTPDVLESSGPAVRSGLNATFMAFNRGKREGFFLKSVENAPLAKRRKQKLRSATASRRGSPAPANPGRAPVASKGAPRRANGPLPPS
UniProt O75460, sequence (whole entry, looked up): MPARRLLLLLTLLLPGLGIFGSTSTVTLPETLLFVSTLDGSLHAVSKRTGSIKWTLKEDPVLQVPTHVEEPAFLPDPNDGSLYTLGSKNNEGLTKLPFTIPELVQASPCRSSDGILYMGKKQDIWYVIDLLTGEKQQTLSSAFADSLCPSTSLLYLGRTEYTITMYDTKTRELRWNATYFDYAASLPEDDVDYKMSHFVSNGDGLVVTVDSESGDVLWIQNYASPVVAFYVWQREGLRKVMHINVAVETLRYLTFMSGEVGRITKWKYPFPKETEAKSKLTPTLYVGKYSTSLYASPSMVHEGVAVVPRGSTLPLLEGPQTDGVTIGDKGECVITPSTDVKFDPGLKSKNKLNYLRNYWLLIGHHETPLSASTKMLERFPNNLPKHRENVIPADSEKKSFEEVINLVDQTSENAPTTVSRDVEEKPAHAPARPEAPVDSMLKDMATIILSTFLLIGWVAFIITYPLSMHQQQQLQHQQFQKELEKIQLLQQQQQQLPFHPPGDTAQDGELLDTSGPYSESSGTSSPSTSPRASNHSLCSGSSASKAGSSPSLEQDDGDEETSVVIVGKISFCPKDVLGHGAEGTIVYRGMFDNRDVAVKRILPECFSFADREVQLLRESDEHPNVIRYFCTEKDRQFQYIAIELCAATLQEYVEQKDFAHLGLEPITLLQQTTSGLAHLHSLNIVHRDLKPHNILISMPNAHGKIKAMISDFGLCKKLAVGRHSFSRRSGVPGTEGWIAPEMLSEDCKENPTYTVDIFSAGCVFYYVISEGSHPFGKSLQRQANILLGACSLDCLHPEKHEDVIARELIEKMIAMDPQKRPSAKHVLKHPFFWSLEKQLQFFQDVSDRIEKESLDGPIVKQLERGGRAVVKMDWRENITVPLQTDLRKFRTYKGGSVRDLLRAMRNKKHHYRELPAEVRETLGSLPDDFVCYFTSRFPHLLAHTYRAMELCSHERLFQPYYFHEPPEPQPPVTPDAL
UniProt P08631, sequence (whole entry, looked up): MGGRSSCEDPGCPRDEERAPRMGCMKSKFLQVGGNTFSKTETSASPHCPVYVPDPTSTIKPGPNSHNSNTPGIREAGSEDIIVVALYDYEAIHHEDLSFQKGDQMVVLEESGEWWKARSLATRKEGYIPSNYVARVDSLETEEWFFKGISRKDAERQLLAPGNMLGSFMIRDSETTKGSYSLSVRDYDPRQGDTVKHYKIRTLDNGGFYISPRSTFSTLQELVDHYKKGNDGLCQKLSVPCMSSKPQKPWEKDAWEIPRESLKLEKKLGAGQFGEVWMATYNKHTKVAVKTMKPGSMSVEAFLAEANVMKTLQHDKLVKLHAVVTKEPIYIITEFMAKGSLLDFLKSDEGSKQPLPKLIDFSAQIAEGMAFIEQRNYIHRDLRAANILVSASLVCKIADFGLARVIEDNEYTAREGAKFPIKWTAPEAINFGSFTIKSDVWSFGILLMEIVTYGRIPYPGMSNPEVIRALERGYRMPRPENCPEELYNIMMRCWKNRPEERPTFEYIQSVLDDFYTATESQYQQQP
UniProt O95382, sequence (whole entry, looked up): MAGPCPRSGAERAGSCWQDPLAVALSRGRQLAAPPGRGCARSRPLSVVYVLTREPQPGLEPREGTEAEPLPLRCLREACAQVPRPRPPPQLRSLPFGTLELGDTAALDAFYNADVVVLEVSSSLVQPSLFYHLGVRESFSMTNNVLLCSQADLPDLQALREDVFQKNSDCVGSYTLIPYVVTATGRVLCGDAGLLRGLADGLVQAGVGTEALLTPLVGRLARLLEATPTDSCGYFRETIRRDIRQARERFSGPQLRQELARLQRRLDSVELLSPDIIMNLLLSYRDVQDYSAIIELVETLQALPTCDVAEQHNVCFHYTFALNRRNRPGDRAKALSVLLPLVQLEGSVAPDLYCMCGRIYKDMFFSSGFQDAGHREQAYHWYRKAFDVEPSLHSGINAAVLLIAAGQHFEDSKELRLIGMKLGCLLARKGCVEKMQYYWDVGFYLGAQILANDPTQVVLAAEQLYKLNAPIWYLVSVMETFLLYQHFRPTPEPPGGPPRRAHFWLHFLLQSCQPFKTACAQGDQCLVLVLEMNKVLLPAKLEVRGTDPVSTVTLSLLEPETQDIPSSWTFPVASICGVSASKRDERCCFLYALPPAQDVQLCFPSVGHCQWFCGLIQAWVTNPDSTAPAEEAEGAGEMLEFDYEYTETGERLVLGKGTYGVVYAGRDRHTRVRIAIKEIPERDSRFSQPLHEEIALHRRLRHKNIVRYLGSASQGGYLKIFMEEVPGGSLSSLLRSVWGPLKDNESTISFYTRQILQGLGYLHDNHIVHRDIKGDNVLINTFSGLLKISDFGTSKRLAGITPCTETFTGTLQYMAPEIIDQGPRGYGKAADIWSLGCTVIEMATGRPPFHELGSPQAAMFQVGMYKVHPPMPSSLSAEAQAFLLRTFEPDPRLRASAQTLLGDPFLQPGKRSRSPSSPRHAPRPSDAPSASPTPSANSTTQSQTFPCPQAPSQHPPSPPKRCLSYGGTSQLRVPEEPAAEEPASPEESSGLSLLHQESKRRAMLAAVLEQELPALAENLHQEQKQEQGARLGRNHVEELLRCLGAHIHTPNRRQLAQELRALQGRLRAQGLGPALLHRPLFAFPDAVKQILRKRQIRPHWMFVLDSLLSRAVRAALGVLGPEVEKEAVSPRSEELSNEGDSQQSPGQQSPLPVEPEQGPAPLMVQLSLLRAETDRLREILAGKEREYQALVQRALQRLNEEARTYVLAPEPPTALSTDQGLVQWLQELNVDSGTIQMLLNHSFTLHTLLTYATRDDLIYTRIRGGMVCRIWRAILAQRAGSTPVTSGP
UniProt Q9UQB9, sequence (whole entry, looked up): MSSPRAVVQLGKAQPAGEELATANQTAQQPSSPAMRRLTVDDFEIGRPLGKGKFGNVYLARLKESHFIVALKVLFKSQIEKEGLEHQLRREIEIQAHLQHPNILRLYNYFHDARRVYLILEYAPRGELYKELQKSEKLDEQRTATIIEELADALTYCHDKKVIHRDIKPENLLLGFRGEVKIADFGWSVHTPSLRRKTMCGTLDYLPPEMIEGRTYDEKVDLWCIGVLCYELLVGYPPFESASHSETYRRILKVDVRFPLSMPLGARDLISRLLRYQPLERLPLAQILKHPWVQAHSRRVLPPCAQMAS

Block 1 — technique: phase 2a trial; species: idiopathic pulmonary fibrosis patients
Structure (SMILES): CC(C)n1cnc(-c2ccc(F)cc2)c1-c1ncc(C(=O)Nc2ccc(N3CCN(C)CC3)cc2)[nH]1
60 mg once daily, grade 3 emergent event — “patients with hypophosphataemia”: 0%.
The “patients with hypophosphataemia” was 0% (30 mg once daily, grade 2 emergent event).
It gave 0% for “patients with hypophosphataemia” (all arms pooled, grade 5 emergent event).

Block 2 — mode: agonist
Target: Beta-1 adrenergic receptor (ADRB1, Homo sapiens, UniProt P08588)
UniProt P08588, sequence (whole entry, looked up): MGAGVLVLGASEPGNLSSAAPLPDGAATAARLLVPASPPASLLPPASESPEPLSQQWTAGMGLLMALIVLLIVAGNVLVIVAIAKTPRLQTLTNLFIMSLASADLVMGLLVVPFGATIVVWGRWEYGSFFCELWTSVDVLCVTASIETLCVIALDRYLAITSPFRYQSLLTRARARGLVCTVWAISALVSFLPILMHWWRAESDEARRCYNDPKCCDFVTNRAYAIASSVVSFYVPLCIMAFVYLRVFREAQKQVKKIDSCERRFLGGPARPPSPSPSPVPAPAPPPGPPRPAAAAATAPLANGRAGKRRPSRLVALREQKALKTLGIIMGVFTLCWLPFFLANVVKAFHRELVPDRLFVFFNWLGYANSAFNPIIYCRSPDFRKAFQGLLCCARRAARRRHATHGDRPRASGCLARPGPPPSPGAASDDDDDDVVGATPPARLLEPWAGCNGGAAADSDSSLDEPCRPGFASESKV
COc1ccccc1N1CCN(CC(=O)Nc2ccc(C(N)=O)cc2)CC1 gave an EC50 of ≥ 100 µM.
N#Cc1cc2c(nc1N1CC(n3c(C4CC4)nc4ccccc43)C1)CCOC2 gave an EC50 of ≥ 100 µM.
CN1CCN(Cc2cccc(OCC(O)CN3CCOCC3)c2)CC1(C)C (stereo not shown) gave an EC50 of ≥ 100 µM.
With Cc1cc(=O)oc2c(O)c(O)ccc12 the EC50 was ≥ 100 µM.
With COc1ccccc1C(=O)Nc1ccc(C(O)[C@H]2COCC(=O)N2)cc1 (stereo partly shown) the EC50 was ≥ 100 µM.

Block 3
SMILES: COc1cc(C(=O)N2CCC(N3CCN(C)CC3)CC2)ccc1Nc1ncc2c(n1)N(C)c1ccccc1C(=O)N2C
The inhibition was 0.8% (ULK3 (mouse); probe labelling, KiNativ, measured: EVVAIkCVAK peptide, LYS1 site; brain tissue lysate (mouse); 0.1 µM, with: ADP acyl-phosphate probe).
It gave -12.2% for inhibition (human PBMC; probe labeling, inhibitor, KiNativ profiling, measured: DMkAANVLITR; cell lysate; 1 µM, LYS2 site, with: ATP acyl-phosphate probe).
For mouse ILK; probe labelling, KiNativ ADP probe; mouse brain lysate; 0.1 µM, kinase domain ISMADVkFSFQCPGR: inhibition read 15.7%.

Block 4 — organism: Sarcocystis neurona; observed: parasite growth; tested at: 10 µM; time: 96 h; notes: first screen; baseline: untreated
Under “log2 fold change”, CCCCC[C@H](O)/C=C/[C@H]1[C@H](O)CC(=O)[C@@H]1CCCCCCC(=O)O is recorded as 0.17.
Cc1occc(=O)c1O: “log2 fold change” 0.14.
O=C(c1ccccc1)c1ccc2n1CCC2C(=O)O (stereo not shown) — result for “log2 fold change”: 0.3.
CC(C)(C#N)c1cc(Cn2cncn2)cc(C(C)(C)C#N)c1 — result for “log2 fold change”: -0.12.

Block 5 — tested at: 1 µM
SMILES: Cc1nccc(COC(=O)N2C[C@@H]3[C@@H](CNC(=O)c4ccc5[nH]nnc5c4)[C@@H]3C2)n1
For ERN1 (Homo sapiens, UniProt O75460); cell-free assay, competition with immobilised ligand: remaining binding read 90%.
For MAP3K6 (Homo sapiens, UniProt O95382); cell-free assay, competition with immobilised ligand: remaining binding read 78%.
MET (Homo sapiens, UniProt P08581, M1250T); cell-free assay, competition with immobilised ligand — remaining binding: 100%.
For Aurora kinase C (AURKC, Homo sapiens, UniProt Q9UQB9); cell-free assay, competition with immobilised ligand: remaining binding read 100%.
The remaining binding was 92% (STK36 (Homo sapiens, UniProt Q9NRP7); cell-free assay, competition with immobilised ligand).
It gave 99% for remaining binding (HCK (Homo sapiens, UniProt P08631); cell-free assay, competition with immobilised ligand).
It gave 97% for remaining binding (CDK19 (Homo sapiens, UniProt Q9BWU1); competition binding).
NEK5 (Homo sapiens, UniProt Q6P3R8); cell-free assay, competition with immobilised ligand — remaining binding: 87%.
For MAP3K4 (Homo sapiens, UniProt Q9Y6R4); cell-free assay, competition with immobilised ligand: remaining binding read 94%.
PLK1 (Homo sapiens, UniProt P53350); cell-free assay, competition with immobilised ligand — remaining binding: 92%.
MELK (Homo sapiens, UniProt Q14680); cell-free assay, competition with immobilised ligand — remaining binding: 100%.
MKNK2 (Homo sapiens, UniProt Q9HBH9); cell-free assay, competition with immobilised ligand — remaining binding: 90%.
For Ribosomal protein S6 kinase alpha-4, N-terminal kinase domain (RPS6KA4, Homo sapiens, UniProt O75676); cell-free assay, competition with immobilised ligand: remaining binding read 100%.

Some of these lines once more (block 5):
It gave 99% for remaining binding (HCK (Homo sapiens, UniProt P08631); cell-free assay, competition with immobilised ligand).
It gave 97% for remaining binding (CDK19 (Homo sapiens, UniProt Q9BWU1); competition binding).
NEK5 (Homo sapiens, UniProt Q6P3R8); cell-free assay, competition with immobilised ligand — remaining binding: 87%.
For MAP3K4 (Homo sapiens, UniProt Q9Y6R4); cell-free assay, competition with immobilised ligand: remaining binding read 94%.
